# Assay results gathered from unrelated publications.
# B1: UBX5 (Saccharomyces cerevisiae, UniProt Q06682); sequence looked up; chain MSEGKVDEFMAITGADDAAIATQFIEMADGNLNTAISLFFENGGAALLSSNNTPTPSNSTPMAPTSVDSDADAQLAERLQREAYQQQQPDQDYVRPPDEARHEVLTETSGFPISYGGIGGRFEPLHRVNDMFDEGRPESIFNQRLDDTNTNTYINDNSSDSLDSEEENDDDEYEYVEEPVIELDEDGNIKEYTKLVRKPKTISKEQKLALLFRPPFSIMSKLDLDAAKQKARAKQKWIMINIQDSGIFQCQALNRDLWSSRPVKTIIKENFVFLQYQYESRNAQPYLQFYHLNNKDDLPHIAILDPITGERVKQWNRVVPIPEQFISEINEFLASFSLDPKVPNPTVNEPLPKVDPTTLTEEQQMELAIKESLNNNSSKSNQEEVPSTGEEQKRVQEPDPFSTIEARVHPEPPNKPGITTRIQIRTGDGSRLVRRFNALEDTVRTIYEVIKTEMDGFADSRFTLNDHQREDLIDKLNMTIADAGLKNSSLLLEKLDPEIE
# B2: RAD18 267-402 (Homo sapiens, UniProt Q9NS91); sequence looked up; chain IQGNKQQLIKRHQEFVHMYNAQCDALHPKSAAEIVREIENIEKTRMRLEASKLNESVMVFTKDQTEKEIDEIHSKYRKKHKSEFQLLVDQARKGYKKIAGMSQKTVTITKEDESTEKLSSVCMGQEDNMTSVTNHF
# B3: NOTCH2 221-530 (Homo sapiens, UniProt Q04721); sequence looked up; chain LYVPCAPSPCVNGGTCRQTGDFTFECNCLPGFEGSTCERNIDDCPNHRCQNGGVCVDGVNTYNCRCPPQWTGQFCTEDVDECLLQPNACQNGGTCANRNGGYGCVCVNGWSGDDCSENIDDCAFASCTPGSTCIDRVASFSCMCPEGKAGLLCHLDDACISNPCHKGALCDTNPLNGQYICTCPQGYKGADCTEDVDECAMANSNPCEHAGKCVNTDGAFHCECLKGYAGPRCEMDINECHSDPCQNDATCLDKIGGFTCLCMPGFKGVHCELEINECQSNPCVNNGQCVDKVNRFQCLCPPGFTGPVCQ
# B4: SETX 1-1721 (Homo sapiens, UniProt Q7Z333); sequence looked up; chain MSTCCWCTPGGASTIDFLKRYASNTPSGEFQTADEDLCYCLECVAEYHKARDELPFLHEVLWELETLRLINHFEKSMKAEIGDDDELYIVDNNGEMPLFDITGQDFENKLRVPLLEILKYPYLLLHERVNELCVEALCRMEQANCSFQVFDKHPGIYLFLVHPNEMVRRWAILTARNLGKVDRDDYYDLQEVLLCLFKVIELGLLESPDIYTSSVLEKGKLILLPSHMYDTTNYKSYWLGICMLLTILEEQAMDSLLLGSDKQNDFMQSILHTMEREADDDSVDPFWPALHCFMVILDRLGSKVWGQLMDPIVAFQTIINNASYNREIRHIRNSSVRTKLEPESYLDDMVTCSQIVYNYNPEKTKKDSGWRTAICPDYCPNMYEEMETLASVLQSDIGQDMRVHNSTFLWFIPFVQSLMDLKDLGVAYIAQVVNHLYSEVKEVLNQTDAVCDKVTEFFLLILVSVIELHRNKKCLHLLWVSSQQWVEAVVKCAKLPTTAFTRSSEKSSGNCSKGTAMISSLSLHSMPSNSVQLAYVQLIRSLLKEGYQLGQQSLCKRFWDKLNLFLRGNLSLGWQLTSQETHELQSCLKQIIRNIKFKAPPCNTFVDLTSACKISPASYNKEESEQMGKTSRKDMHCLEASSPTFSKEPMKVQDSVLIKADNTIEGDNNEQNYIKDVKLEDHLLAGSCLKQSSKNIFTERAEDQIKISTRKQKSVKEISSYTPKDCTSRNGPERGCDRGIIVSTRLLTDSSTDALEKVSTSNEDFSLKDDALAKTSKRKTKVQKDEICAKLSHVIKKQHRKSTLVDNTINLDENLTVSNIESFYSRKDTGVQKGDGFIHNLSLDPSGVLDDKNGEQKSQNNVLPKEKQLKNEELVIFSFHENNCKIQEFHVDGKELIPFTEMTNASEKKSSPFKDLMTVPESRDEEMSNSTSVIYSNLTREQAPDISPKSDTLTDSQIDRDLHKLSLLAQASVITFPSDSPQNSSQLQRKVKEDKRCFTANQNNVGDTSRGQVIIISDSDDDDDERILSLEKLTKQDKICLEREHPEQHVSTVNSKEEKNPVKEEKTETLFQFEESDSQCFEFESSSEVFSVWQDHPDDNNSVQDGEKKCLAPIANTTNGQGCTDYVSEVVKKGAEGIEEHTRPRSISVEEFCEIEVKKPKRKRSEKPMAEDPVRPSSSVRNEGQSDTNKRDLVGNDFKSIDRRTSTPNSRIQRATTVSQKKSSKLCTCTEPIRKVPVSKTPKKTHSDAKKGQNRSSNYLSCRTTPAIVPPKKFRQCPEPTSTAEKLGLKKGPRKAYELSQRSLDYVAQLRDHGKTVGVVDTRKKTKLISPQNLSVRNNKKLLTSQELQMQRQIRPKSQKNRRRLSDCESTDVKRAGSHTAQNSDIFVPESDRSDYNCTGGTEVLANSNRKQLIKCMPSEPETIKAKHGSPATDDACPLNQCDSVVLNGTVPTNEVIVSTSEDPLGGGDPTARHIEMAALKEGEPDSSSDAEEDNLFLTQNDPEDMDLCSQMENDNYKLIELIHGKDTVEVEEDSVSRPQLESLSGTKCKYKDCLETTKNQGEYCPKHSEVKAADEDVFRKPGLPPPASKPLRPTTKIFSSKSTSRIAGLSKSLETSSALSPSLKNKSKGIQSILKVPQPVPLIAQKPVGEMKNSCNVLHPQSPNNSNRQGCKVPFGESKYFPSSSPVNILLSSQSVSDTFVKEVLKWKYEMFLNFGQCGP
# B5: rga7 33-307 (Schizosaccharomyces pombe, UniProt O94466); sequence looked up; chain PKVEAILNSELGLAILNDRIKDYLLTCKELAGFFKKRSILEEESGKNLQKLAKSYLETFQSKHHSPQSFSASVITSMEIHEQLANHSLTLQKTLSAFSDQVIEFHKNAERKRKSIKEYAKKQENAYLEAVMQMDKSKSRFKGAETEYNRALDNKNTGDSQKKVGFFKPKSNAQLTKLEDEARLKAENAESDMHSKIENAQNVQKQLLCIHRPNYIKQFFSLQREIESSLIANYLRYTKLCESNTLLNGLTIRPQKPTPTNCGLQHALDNINANTD
# B6: POL30 1-258 (Saccharomyces cerevisiae, UniProt P15873); chain MLEAKFEEASLFKRIIDGFKDCVQLVNFQCKEDGIIAQAVDDSRVLLVSLEIGVEAFQEYRCDHPVTLGMDLTSLSKILRCGNNTDTLTLIADNTPDSIILLFEDTKKDRIAEYSLKLMDIDADFLKIEELQYDSTLSLPSSEFSKIVRDLSQLSDSINIMITKETIKFVADGDIGSGSVIIKPFVDMEHPETSIKLEMDQPVDLTFGAKYLLDIIKGSSLSDRVGIRLSSEAPALFQFDLKSGFLQFFLAPKFNDEE
# B7: PFD3 (Arabidopsis thaliana, UniProt P57741); sequence looked up; chain MSSSSPSGSGSDLTERRGIPAAKFIQDVETYLSQSGLDPNSALAFHQERLQQYKVVEMKLLAQQRDLQAKIPDIEKCLEVVATLEAKKGTGEALLADFEVSEGIYSRACIEDTDSVCLWLGANVMLEYSCEEASALLKNNLENAKASLEVLVADLQFLRDQVTVTQVTIARVYNWDVHQRRVKQVTPTAIAVADS
# B8: ATG9 1-100 (Saccharomyces cerevisiae, UniProt Q12142); sequence looked up; chain MERDEYQLPNSHGKNTFLSRIFGLQSDEVNPSLNSQEMSNFPLPDIERGSSLLHSTNDSREDVDENDLRVPESDQGTSTEEEDEVDEEQVQAYAPQISDG
# B9: PSMD10 1-226 G214E (Homo sapiens, UniProt O75832); chain MEGCVSNLMVCNLAYSGKLEELKESILADKSLATRTDQDSRTALHWACSAGHTEIVEFLLQLGVPVNDKDDAGWSPLHIAASAGRDEIVKALLGKGAQVNAVNQNGCTPLHYAASKNRHEIAVMLLEGGANPDAKDHYEATAMHRAAAKGNLKMIHILLYYKASTNIQDTEGNTPLHLACDEERVEEAKLLVSQGASIYIENKEEKTPLQVAKEGLGLILKRMVEG
# B10: SIR4 1150-1358 (Saccharomyces cerevisiae, UniProt P11978); sequence looked up; chain KTLPEKKQFDSIFNSNKAKIIPGNGKHASENISLSFSRPASYGYFSVGKRVPIVEDRRVKQLDDITDSNTTEILTSVDVLGTHSQTGTQQSNMYTSTQKTELEIDNKDSVTECSKDMKEDGLSFVDIVLSKAASALDEKEKQLAVANEIIRSLSDEVMRNEIRITSLQGDLTFTKKCLENARSQISEKDAKINKLMEKDFQVNKEIKPY
# Sequence of UniProt Q12509 (whole entry, looked up): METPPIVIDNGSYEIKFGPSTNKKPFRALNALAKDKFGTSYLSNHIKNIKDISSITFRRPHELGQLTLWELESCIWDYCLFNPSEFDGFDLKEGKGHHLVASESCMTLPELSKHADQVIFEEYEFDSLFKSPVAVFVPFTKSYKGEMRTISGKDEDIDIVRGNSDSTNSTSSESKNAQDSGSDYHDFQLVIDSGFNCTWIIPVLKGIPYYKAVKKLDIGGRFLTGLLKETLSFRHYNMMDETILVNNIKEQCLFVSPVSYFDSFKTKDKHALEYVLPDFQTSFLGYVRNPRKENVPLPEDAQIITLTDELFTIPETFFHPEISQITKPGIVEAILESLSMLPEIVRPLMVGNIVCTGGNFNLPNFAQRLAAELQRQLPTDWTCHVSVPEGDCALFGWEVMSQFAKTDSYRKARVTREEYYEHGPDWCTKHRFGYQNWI
# Sequence of UniProt P06700 (whole entry, looked up): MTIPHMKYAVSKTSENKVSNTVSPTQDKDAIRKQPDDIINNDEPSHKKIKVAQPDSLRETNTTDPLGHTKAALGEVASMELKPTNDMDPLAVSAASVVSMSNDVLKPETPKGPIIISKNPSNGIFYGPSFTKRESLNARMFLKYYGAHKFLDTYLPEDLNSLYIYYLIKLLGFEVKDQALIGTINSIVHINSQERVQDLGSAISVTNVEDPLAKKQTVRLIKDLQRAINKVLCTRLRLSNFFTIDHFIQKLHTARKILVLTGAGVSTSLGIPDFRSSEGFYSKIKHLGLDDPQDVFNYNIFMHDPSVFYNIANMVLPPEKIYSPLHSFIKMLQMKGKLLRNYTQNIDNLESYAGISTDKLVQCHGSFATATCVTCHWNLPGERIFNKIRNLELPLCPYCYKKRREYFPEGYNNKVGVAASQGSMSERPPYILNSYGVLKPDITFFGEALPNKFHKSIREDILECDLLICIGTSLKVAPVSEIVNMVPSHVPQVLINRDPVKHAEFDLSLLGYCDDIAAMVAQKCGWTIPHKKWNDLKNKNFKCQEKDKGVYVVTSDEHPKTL
# Sequence of UniProt P38251 (whole entry, looked up): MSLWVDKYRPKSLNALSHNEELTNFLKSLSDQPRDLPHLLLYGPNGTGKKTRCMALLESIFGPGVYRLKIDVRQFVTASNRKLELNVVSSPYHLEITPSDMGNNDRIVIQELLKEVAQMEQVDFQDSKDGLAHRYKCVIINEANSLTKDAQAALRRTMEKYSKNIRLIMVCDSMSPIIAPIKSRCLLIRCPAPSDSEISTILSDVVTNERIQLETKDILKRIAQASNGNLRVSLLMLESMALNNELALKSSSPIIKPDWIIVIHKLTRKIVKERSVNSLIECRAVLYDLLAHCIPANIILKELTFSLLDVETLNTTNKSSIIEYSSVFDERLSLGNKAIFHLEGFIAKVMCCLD
# Sequence of UniProt Q9NR61 (whole entry, unmodified, looked up): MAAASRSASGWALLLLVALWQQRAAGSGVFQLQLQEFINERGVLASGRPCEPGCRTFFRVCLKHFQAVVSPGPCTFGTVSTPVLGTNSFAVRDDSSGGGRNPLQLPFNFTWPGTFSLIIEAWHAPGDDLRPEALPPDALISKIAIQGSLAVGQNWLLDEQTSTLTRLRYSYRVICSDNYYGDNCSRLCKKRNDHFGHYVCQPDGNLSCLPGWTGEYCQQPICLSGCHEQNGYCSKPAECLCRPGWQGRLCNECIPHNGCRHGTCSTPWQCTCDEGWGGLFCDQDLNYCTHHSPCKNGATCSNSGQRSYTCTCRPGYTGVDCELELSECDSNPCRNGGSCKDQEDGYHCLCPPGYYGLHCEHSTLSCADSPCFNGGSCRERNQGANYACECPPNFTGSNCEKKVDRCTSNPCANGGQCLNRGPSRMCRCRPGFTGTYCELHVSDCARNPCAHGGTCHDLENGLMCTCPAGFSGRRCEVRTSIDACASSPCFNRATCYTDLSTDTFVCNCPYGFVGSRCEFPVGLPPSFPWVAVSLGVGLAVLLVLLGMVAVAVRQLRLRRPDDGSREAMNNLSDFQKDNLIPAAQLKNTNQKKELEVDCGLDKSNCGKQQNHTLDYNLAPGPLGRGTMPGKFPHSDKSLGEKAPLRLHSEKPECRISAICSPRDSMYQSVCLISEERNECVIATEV
# Sequence of UniProt Q09697 (whole entry, looked up): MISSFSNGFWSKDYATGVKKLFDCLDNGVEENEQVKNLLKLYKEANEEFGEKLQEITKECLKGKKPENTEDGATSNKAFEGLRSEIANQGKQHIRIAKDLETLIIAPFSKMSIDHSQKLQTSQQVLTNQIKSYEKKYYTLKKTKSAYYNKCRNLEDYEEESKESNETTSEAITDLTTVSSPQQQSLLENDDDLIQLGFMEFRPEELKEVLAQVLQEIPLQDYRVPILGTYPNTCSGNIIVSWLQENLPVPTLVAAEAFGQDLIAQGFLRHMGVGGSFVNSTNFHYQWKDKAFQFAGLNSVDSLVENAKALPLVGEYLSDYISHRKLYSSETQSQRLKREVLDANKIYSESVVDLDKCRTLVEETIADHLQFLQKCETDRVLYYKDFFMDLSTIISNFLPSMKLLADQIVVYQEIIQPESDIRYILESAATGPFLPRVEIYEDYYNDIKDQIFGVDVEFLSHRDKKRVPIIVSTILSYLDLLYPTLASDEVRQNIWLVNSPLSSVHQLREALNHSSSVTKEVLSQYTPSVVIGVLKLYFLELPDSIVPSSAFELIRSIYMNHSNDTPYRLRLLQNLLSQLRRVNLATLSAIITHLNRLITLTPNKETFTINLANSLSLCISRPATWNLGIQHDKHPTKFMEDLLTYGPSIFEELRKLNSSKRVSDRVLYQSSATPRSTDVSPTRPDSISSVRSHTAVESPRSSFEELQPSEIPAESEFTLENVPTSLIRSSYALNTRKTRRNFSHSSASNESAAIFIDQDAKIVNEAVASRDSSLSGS
# Sequence of UniProt Q9LIE5 (whole entry, looked up): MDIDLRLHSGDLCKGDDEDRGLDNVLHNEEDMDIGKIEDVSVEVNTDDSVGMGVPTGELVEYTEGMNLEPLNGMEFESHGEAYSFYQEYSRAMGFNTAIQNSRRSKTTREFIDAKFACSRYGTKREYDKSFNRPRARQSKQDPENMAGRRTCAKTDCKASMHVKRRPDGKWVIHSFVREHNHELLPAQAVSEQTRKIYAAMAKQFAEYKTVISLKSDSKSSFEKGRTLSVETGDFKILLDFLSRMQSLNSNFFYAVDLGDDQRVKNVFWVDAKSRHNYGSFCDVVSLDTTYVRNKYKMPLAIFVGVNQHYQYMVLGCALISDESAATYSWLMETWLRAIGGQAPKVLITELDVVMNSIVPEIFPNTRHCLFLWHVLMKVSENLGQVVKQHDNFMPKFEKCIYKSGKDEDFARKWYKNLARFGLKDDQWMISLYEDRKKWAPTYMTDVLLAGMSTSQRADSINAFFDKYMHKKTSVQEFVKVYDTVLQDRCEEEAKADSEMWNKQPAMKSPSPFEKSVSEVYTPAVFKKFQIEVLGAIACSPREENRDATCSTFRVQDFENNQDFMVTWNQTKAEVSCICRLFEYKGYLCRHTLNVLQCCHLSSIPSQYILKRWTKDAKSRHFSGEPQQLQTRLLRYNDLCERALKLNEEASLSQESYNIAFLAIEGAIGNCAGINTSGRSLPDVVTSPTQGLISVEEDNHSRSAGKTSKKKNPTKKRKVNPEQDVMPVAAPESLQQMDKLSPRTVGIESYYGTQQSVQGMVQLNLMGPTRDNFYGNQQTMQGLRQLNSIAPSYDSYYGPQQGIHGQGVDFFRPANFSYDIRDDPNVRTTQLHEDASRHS
# Sequence of UniProt P23804 (whole entry, looked up): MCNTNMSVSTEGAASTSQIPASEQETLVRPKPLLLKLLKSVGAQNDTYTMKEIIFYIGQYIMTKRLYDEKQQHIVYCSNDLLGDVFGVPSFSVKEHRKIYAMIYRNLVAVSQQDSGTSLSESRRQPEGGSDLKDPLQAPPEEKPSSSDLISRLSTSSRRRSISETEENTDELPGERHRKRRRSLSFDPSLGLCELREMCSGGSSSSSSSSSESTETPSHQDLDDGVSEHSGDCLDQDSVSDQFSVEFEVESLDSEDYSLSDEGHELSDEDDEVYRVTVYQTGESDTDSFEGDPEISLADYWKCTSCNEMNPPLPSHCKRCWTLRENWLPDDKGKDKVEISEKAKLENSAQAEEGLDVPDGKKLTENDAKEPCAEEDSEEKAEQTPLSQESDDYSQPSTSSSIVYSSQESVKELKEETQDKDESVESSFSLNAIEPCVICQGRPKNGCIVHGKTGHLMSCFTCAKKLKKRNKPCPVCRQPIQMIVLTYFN
Substance,tested on,assay,system,setting,endpoint,result
B1 (UBX5),CDC48/UFD1/NPL4 (Saccharomyces cerevisiae),pull-down,,,binding,binds
B2 (RAD18 267-402),"MAGEA4 101-312 R297A (Homo sapiens, UniProt P43358)",TR-FRET,,,binding,binds
colistin,Pseudomonas aeruginosa,broth microdilution,clinical isolate RKI-No_579/15,,MIC,1 mg/L
B3 (NOTCH2 221-530),"DLL4 27-400 G28S/F107L/I143F/H194Y/L206P (Homo sapiens, UniProt Q9NR61)",SPR,,,binding,binds
11-deoxycorticosterone,human CYP11B2,stopped-flow kinetic modelling,,"3-state induced fit model, with: equimolar adrenodoxin",Kd,2160 nM
B4 (SETX 1-1721),BRCA1/BARD1 (Homo sapiens),pull-down,,,binding,binds
B5 (rga7 33-307),"rga8 1-420 (Schizosaccharomyces pombe, UniProt Q09697)",pull-down,,,binding,binds
"ARP6 (Saccharomyces cerevisiae, UniProt Q12509)","SWC3 (Saccharomyces cerevisiae, UniProt P31376)",cryo-EM,,,binding,binds
B6 (POL30 1-258),"RFC5 1-354 (Saccharomyces cerevisiae, UniProt P38251)",cryo-EM,,,binding,binds
B7 (PFD3),"FHY3 (Arabidopsis thaliana, UniProt Q9LIE5)",pull-down,,,binding,binds
"FGA (Homo sapiens, UniProt P02671)","TSEN2 (Homo sapiens, UniProt Q8NCE0)",cross-linking MS,,with: DSSO,cross-linked residues,K202 to K134
B8 (ATG9 1-100),"ATG23 M340E (Saccharomyces cerevisiae, UniProt Q06671)",pull-down,,"15 minutes, 4 °C",binding,binds
B9 (PSMD10 1-226 G214E),"Mdm2 (Mus musculus, UniProt P23804)",pull-down,,,binding,binds
"FGB (Homo sapiens, UniProt P02675)","LRRN1 (Homo sapiens, UniProt Q6UXK5)",cross-linking MS,,with: DSSO,cross-linked residues,K353 to K666
B10 (SIR4 1150-1358),"SIR2, His6, RED-tris-NTA label (Saccharomyces cerevisiae, UniProt P06700)",MST,,,binding,binds

# Some of these lines once more:
Substance,tested on,assay,system,setting,endpoint,result
B5 (rga7 33-307),"rga8 1-420 (Schizosaccharomyces pombe, UniProt Q09697)",pull-down,,,binding,binds
